Experimental data collected from several papers.
Numbered parts are unrelated; each lists some results of a single study.
Chain of UniProt P54646 (whole entry, looked up): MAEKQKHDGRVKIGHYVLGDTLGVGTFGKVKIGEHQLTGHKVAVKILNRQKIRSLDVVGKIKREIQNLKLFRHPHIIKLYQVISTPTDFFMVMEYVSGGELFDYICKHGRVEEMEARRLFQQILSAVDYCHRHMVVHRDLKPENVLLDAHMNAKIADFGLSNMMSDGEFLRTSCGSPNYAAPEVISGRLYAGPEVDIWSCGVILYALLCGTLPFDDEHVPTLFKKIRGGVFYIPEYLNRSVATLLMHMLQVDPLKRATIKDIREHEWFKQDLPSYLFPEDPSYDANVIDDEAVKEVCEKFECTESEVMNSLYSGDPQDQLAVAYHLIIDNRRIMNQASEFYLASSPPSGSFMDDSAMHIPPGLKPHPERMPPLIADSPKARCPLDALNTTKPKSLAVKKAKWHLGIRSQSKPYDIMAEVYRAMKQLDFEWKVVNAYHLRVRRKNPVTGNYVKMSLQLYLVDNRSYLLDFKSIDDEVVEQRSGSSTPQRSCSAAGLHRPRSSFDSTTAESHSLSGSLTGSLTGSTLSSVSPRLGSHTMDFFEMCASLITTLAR
Chain of UniProt Q99558 (whole entry, looked up): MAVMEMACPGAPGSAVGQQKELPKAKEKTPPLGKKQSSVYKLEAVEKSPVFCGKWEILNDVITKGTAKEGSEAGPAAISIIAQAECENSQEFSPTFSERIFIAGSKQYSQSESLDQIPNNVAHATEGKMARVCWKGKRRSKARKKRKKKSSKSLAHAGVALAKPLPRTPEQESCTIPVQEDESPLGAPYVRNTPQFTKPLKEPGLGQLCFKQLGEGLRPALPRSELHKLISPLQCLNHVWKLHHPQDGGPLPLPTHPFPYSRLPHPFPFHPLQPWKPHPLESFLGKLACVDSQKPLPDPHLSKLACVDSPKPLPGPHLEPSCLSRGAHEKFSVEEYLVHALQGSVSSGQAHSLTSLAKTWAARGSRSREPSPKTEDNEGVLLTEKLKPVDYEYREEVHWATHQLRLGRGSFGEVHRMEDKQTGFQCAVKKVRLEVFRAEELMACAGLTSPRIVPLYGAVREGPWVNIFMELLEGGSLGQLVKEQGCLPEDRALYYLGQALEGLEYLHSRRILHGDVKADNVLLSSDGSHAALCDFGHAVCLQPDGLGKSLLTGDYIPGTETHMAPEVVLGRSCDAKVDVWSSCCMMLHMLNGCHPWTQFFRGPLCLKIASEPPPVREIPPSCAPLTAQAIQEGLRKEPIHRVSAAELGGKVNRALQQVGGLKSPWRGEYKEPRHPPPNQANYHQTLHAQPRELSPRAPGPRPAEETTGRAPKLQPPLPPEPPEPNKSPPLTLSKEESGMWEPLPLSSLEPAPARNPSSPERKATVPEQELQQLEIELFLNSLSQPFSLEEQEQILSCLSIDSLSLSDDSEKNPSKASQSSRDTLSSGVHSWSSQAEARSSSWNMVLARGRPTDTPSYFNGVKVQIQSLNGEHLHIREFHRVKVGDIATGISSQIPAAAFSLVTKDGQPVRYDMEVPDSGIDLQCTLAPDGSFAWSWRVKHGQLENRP
Chain of UniProt P30530 (whole entry, looked up): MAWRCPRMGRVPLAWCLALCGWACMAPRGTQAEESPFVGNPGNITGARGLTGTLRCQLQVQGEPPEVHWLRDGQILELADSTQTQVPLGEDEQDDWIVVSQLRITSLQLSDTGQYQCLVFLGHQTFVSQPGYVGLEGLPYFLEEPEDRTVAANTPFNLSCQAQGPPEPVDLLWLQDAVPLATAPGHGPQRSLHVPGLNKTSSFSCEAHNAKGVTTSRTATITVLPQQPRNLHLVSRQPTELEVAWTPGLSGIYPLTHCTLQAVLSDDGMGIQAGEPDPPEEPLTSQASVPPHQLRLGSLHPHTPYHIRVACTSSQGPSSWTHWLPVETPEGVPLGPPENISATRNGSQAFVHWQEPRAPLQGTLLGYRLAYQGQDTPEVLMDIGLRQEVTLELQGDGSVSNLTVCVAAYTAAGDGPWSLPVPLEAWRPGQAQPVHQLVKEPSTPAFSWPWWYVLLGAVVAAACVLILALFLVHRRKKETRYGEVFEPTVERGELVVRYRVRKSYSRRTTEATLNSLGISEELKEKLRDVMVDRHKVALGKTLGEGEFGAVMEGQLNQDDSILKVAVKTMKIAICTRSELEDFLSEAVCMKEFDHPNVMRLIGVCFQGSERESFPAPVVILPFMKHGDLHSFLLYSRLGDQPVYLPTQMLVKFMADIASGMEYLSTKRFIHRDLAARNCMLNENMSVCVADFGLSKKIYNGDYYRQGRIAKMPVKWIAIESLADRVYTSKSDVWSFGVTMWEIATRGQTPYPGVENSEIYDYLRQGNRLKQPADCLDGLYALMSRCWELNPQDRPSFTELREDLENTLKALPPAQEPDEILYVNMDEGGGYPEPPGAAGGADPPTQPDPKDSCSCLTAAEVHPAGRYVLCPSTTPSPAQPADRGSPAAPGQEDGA
Chain of UniProt O75716 (whole entry, looked up): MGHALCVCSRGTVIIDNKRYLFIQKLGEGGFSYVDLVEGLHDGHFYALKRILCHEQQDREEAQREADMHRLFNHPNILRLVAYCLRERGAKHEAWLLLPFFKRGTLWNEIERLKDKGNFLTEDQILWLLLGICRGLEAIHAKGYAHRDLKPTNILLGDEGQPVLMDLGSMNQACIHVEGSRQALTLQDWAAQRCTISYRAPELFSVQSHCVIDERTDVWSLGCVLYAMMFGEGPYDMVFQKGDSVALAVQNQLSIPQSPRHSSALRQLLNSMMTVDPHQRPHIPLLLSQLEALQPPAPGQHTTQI
Chain of UniProt Q00536 (whole entry, looked up): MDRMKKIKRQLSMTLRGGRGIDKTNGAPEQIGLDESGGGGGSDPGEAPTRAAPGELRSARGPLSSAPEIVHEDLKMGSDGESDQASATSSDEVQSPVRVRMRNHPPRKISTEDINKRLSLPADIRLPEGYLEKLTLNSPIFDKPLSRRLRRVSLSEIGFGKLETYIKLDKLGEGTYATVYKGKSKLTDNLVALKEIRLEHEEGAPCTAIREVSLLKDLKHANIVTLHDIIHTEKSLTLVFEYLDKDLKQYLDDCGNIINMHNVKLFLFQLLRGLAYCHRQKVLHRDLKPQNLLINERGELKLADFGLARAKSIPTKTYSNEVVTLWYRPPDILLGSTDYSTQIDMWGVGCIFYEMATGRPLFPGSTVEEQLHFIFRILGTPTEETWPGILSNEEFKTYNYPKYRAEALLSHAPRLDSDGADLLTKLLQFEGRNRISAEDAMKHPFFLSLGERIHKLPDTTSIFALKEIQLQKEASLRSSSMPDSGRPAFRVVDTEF
Chain of UniProt P10398 (whole entry, looked up): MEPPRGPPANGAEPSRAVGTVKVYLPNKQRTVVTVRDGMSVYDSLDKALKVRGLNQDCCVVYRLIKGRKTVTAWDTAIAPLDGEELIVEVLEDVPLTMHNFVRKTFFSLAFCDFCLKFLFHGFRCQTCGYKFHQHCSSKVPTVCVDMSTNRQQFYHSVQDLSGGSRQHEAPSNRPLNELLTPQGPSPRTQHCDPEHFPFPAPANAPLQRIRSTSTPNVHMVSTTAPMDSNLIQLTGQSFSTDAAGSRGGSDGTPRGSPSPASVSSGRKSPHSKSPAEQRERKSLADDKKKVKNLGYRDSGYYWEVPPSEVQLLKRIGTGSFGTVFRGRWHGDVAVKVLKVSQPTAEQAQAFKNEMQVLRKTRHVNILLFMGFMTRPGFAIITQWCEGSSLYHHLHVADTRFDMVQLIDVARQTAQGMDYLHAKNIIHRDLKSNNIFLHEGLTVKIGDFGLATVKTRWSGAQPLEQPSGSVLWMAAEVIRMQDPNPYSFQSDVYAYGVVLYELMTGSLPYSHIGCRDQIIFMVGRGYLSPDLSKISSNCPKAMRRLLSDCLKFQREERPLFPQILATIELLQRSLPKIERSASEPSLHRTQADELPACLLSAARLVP
Chain of UniProt P36896 (whole entry, looked up): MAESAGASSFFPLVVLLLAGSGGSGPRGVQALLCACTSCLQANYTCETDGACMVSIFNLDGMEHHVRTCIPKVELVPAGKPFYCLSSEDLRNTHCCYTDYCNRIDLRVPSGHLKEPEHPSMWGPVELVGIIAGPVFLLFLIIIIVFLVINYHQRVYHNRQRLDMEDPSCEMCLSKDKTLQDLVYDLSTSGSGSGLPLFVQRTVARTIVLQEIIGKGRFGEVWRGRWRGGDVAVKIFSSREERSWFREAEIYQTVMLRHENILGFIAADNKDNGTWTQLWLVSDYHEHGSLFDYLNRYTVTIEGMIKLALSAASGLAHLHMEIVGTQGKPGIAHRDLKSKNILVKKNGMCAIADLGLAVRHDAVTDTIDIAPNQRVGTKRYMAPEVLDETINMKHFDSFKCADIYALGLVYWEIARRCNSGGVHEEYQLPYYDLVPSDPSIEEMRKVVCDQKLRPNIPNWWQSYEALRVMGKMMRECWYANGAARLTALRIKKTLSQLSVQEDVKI

Set 1
Compound: CS(=O)(=O)c1cc(C2(NC(=O)c3cncc4c3cnn4-c3ccc(F)cc3)CC2)ccn1
Read-out: cell-free assay
Method: competition with immobilised ligand
Tested at: 1 µM
target | remaining binding [%]
Glycogen synthase kinase-3 alpha (GSK3A, Homo sapiens, UniProt P49840) | 70
5'-AMP-activated protein kinase catalytic subunit alpha-2 (PRKAA2, Homo sapiens, UniProt P54646) | 100
Tyrosine-protein kinase receptor UFO (AXL, Homo sapiens, UniProt P30530) | 100
Ephrin type-A receptor 4 (EPHA4, Homo sapiens, UniProt P54764) | 100
Serine/threonine-protein kinase 16 (STK16, Homo sapiens, UniProt O75716) | 93

Set 2
Target: Calcium/calmodulin-dependent protein kinase type II subunit alpha (CAMK2A, Homo sapiens, UniProt Q9UQM7)
Chain of UniProt Q9UQM7 (whole entry, looked up): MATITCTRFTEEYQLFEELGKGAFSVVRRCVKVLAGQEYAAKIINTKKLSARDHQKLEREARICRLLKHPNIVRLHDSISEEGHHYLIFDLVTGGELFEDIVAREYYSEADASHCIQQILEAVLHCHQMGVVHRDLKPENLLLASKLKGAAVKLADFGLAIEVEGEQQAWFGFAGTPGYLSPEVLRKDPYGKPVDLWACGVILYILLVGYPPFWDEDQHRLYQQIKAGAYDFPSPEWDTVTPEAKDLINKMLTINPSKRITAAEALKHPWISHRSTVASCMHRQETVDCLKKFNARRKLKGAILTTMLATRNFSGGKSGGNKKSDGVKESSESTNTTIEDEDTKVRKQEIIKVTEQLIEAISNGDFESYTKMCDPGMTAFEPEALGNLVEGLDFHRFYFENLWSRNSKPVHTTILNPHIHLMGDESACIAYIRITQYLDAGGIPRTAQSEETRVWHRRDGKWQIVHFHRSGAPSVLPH
Read-out: enzyme activity
Mode: inhibitor
Tested at: 10 µM
SMILES | inhibition
NCCS(=O)(=O)O | 41%
CC(C)NCC(O)COc1cccc2[nH]ccc12 (centres unmarked) | -14%
CCOC(=O)[C@H](CCc1ccccc1)N[C@@H](C)C(=O)N1CC2(C[C@H]1C(=O)O)SCCS2 | -6%

Set 3
Target: Diamine acetyltransferase 1 (Homo sapiens, UniProt P21673)
Mode: inhibitor
Tested at: 10 µM
Relative to: control
Residues (P21673 1-171): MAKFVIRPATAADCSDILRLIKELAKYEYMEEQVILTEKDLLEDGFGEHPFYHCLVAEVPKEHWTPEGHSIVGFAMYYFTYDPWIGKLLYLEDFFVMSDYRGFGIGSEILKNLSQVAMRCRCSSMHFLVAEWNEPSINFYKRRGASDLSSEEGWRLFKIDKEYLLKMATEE
Structure (SMILES) | remaining activity
CC[C@H](C)[C@H](N)C(=O)O | 82.6%
CC/C=C\C/C=C\C/C=C\CCCCCCCC(=O)O | 80.8%
COc1ccc(-c2cc(=O)c3c(OC)c(OC)c(OC)c(OC)c3o2)cc1 | 97.5%
NC(=O)NCCC[C@H](N)C(=O)O | 104%

Set 4
SMILES: C[C@H]1CC[C@H](n2c3cnccc3c3cnc(Nc4ccc5c(n4)CCN(C(=O)CO)C5)nc32)CC1
Read-out: cell-free assay
Tested at: 1 µM
target | remaining signal
Phosphatidylinositol 4,5-bisphosphate 3-kinase catalytic subunit beta isoform (PIK3CB, Homo sapiens, UniProt P42338) | 100%
Mast/stem cell growth factor receptor Kit (KIT, Homo sapiens, UniProt P10721, T670I/V559D) | 53%
Cyclin-dependent kinase 16 (CDK16, Homo sapiens, UniProt Q00536) | 5.2%
Dual specificity mitogen-activated protein kinase kinase 7 (MAP2K7, Homo sapiens, UniProt O14733) | 100%

Set 5
SMILES: c1cc(-c2cnn3cc(-c4ccc(OCCN5CCCCC5)cc4)cnc23)ccn1
Read-out: enzyme activity
Mode: inhibitor
Tested at: 0.5 µM
Relative to: control
target | remaining activity
Fibroblast growth factor receptor 3 (FGFR3, Homo sapiens, UniProt P22607) | 70.9%
Mitogen-activated protein kinase 3 (MAPK3, Homo sapiens, UniProt P27361) | 110%
Glycogen synthase kinase-3 beta (GSK3B, Homo sapiens, UniProt P49841) | 79.6%
Ephrin type-A receptor 3 (EPHA3, Homo sapiens, UniProt P29320) | 55.7%
Serine/threonine-protein kinase TBK1 (TBK1, Homo sapiens, UniProt Q9UHD2) | 57.2%
Serine/threonine-protein kinase A-Raf (ARAF, Homo sapiens, UniProt P10398) | 55.6%
Casein kinase I isoform gamma-3 (CSNK1G3, Homo sapiens, UniProt Q9Y6M4) | 86.3%
Serine/threonine-protein kinase ULK2 (ULK2, Homo sapiens, UniProt Q8IYT8) | 72.3%
Serine/threonine-protein kinase Nek1 (NEK1, Homo sapiens, UniProt Q96PY6) | 88.9%
Mitogen-activated protein kinase kinase kinase 14 (MAP3K14, Homo sapiens, UniProt Q99558) | 111%
Serine/threonine-protein kinase Nek6 (NEK6, Homo sapiens, UniProt Q9HC98) | 109%
Activin receptor type-1B (ACVR1B, Homo sapiens, UniProt P36896) | 112%
Rhodopsin kinase GRK7 (GRK7, Homo sapiens, UniProt Q8WTQ7) | 92.8%

Some of these lines once more (set 2):
SMILES | inhibition
CCOC(=O)[C@H](CCc1ccccc1)N[C@@H](C)C(=O)N1CC2(C[C@H]1C(=O)O)SCCS2 | -6%
NCCS(=O)(=O)O | 41%
CC(C)NCC(O)COc1cccc2[nH]ccc12 (centres unmarked) | -14%
